Measurements pooled from the literature.
A part holds a random share of what one study measured.
UniProt P51957, sequence (whole entry, looked up): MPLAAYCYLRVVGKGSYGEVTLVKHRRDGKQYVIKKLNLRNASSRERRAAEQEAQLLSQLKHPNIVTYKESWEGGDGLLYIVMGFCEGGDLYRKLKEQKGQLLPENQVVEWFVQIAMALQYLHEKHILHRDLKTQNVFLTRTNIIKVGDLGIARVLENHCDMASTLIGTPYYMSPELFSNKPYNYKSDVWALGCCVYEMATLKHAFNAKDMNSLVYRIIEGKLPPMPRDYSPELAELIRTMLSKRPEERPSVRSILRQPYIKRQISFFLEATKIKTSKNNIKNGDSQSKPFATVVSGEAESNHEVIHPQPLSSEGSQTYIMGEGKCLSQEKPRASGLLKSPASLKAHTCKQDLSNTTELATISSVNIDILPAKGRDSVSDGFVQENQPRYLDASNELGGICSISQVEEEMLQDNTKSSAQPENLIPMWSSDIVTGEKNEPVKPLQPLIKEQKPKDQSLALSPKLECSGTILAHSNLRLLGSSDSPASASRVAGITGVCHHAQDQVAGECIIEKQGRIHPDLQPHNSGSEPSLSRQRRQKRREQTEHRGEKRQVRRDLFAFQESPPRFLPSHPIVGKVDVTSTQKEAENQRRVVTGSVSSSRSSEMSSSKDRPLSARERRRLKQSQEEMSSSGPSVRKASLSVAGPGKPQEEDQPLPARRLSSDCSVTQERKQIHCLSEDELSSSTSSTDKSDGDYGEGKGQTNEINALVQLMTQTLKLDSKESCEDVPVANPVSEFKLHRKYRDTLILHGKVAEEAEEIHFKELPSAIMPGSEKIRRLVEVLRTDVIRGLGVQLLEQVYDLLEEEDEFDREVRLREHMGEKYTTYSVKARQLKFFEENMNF
UniProt P10721, sequence (whole entry, unmodified, looked up): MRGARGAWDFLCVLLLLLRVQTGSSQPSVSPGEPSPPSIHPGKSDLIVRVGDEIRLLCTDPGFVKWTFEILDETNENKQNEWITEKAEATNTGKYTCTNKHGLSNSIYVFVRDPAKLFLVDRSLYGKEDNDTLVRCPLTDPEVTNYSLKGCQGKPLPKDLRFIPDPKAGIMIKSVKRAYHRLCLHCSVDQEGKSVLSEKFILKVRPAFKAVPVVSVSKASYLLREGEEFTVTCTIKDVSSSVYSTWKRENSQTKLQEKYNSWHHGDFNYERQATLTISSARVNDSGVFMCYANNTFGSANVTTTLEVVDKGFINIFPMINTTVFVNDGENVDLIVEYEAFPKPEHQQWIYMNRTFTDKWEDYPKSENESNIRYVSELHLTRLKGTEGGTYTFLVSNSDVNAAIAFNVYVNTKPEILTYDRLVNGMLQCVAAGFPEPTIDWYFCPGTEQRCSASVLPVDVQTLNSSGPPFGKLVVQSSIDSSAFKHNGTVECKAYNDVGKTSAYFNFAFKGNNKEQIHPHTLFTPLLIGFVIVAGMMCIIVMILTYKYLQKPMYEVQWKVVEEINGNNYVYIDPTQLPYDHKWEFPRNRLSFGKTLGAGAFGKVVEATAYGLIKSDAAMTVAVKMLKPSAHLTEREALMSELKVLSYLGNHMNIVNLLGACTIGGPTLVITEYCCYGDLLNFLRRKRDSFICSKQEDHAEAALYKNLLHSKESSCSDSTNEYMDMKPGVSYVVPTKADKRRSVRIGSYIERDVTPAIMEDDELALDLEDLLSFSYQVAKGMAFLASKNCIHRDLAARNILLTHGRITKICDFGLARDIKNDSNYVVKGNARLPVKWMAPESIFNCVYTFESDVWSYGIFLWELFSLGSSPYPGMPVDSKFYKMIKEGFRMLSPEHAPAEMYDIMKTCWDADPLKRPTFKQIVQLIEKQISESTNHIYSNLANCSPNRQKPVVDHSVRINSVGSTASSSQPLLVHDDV
UniProt Q9UM73, sequence (whole entry, looked up): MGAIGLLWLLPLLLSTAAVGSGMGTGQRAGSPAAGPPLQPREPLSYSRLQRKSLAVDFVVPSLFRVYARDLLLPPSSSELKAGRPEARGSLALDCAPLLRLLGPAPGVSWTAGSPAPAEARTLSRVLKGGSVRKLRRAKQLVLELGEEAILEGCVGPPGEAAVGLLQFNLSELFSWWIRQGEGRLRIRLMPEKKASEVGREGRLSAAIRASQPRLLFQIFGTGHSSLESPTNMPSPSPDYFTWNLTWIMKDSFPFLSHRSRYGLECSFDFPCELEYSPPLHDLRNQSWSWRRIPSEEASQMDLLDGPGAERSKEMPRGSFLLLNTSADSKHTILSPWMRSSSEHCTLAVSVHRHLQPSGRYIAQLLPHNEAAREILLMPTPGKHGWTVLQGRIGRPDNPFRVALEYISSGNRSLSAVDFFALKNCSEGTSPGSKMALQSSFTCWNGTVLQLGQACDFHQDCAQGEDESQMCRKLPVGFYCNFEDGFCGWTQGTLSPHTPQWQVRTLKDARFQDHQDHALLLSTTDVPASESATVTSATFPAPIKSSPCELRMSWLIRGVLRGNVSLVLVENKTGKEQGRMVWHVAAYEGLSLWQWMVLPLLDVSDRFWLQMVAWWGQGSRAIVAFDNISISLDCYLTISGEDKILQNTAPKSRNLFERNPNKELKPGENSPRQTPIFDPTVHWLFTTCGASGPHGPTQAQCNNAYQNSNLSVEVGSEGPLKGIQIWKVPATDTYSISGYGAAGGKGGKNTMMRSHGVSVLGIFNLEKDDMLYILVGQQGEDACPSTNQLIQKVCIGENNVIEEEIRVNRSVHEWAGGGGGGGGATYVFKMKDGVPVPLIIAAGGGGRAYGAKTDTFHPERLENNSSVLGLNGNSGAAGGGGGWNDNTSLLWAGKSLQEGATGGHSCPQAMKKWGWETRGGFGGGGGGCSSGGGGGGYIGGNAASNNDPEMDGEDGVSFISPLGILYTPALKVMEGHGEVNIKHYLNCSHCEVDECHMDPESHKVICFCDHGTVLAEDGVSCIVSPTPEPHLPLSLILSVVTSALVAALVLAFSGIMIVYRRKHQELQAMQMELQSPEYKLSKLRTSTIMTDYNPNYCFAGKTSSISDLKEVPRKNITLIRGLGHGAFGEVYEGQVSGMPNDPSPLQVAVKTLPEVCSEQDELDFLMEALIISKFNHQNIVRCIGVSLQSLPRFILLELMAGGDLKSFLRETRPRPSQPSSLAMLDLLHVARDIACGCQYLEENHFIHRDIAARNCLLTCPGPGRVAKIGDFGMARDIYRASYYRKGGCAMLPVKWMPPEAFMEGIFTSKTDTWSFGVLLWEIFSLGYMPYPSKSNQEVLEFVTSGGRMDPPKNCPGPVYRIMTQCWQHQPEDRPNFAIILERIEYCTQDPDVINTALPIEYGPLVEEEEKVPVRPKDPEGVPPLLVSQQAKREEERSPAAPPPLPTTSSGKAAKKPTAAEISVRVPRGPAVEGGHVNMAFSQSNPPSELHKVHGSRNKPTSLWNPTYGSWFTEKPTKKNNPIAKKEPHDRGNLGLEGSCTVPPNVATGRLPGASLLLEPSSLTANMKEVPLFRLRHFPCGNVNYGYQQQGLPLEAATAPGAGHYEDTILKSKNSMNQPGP
UniProt Q9Y2U5, sequence (whole entry, looked up): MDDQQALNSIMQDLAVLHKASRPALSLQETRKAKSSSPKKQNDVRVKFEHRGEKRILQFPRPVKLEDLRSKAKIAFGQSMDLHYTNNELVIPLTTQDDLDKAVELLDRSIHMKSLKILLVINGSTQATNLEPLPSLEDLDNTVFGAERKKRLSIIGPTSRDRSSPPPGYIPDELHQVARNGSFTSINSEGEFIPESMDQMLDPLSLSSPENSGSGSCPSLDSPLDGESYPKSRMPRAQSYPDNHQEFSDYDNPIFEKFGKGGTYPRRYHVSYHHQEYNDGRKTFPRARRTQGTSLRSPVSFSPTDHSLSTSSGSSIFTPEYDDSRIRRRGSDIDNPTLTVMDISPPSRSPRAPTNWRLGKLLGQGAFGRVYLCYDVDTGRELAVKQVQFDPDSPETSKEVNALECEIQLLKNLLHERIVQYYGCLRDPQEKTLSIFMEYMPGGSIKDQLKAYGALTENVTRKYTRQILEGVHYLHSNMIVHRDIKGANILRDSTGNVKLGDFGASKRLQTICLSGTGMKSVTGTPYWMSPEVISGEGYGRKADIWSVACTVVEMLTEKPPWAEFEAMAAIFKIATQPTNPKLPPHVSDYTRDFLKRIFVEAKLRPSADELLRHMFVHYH
UniProt Q00526, sequence (whole entry, looked up): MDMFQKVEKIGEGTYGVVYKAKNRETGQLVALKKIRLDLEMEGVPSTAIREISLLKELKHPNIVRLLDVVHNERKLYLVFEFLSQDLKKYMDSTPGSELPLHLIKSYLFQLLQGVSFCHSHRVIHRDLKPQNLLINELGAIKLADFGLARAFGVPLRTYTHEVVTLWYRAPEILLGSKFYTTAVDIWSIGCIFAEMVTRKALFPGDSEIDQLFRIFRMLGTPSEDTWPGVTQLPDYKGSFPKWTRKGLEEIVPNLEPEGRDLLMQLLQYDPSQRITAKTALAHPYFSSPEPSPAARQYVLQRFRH

Series 1
Compound: CC(C)c1nn(-c2c(Cl)cccc2Cl)c2nc(Cc3ccc(OCCO)cc3)[nH]c(=O)c12
Read-out: enzyme activity
Mode: inhibitor
Concentration: 0.5 µM
Reference: control
| target | remaining activity [%] |
| --- | --- |
| FER (Homo sapiens, UniProt P16591) | 89.4 |
| Cyclin-dependent kinase 3, with cyclin E (CDK3, Homo sapiens, UniProt Q00526) | 6.14 |
| PKN1 (Homo sapiens, UniProt Q16512) | 97 |
| HIPK1 (Homo sapiens, UniProt Q86Z02) | 102 |
| FGR (Homo sapiens, UniProt P09769) | 92 |
| ALK (Homo sapiens, UniProt Q9UM73) | 103 |
| TAOK3 (Homo sapiens, UniProt Q9H2K8) | 91.3 |
| NLK (Homo sapiens, UniProt Q9UBE8) | 97.6 |
| NEK11 (Homo sapiens, UniProt Q8NG66) | 109 |
| FLT4 (Homo sapiens, UniProt P35916) | 103 |
| MATK (Homo sapiens, UniProt P42679) | 91.1 |
| ITK (Homo sapiens, UniProt Q08881) | 98.6 |
| MARK3 (Homo sapiens, UniProt P27448) | 92.2 |
| PRKX (Homo sapiens, UniProt P51817) | 96.3 |
| LIM domain kinase 1 (LIMK1, Homo sapiens, UniProt P53667) | 107 |
| FYN (Homo sapiens, UniProt P06241) | 102 |
| CDC42BPA (Homo sapiens, UniProt Q5VT25) | 89.5 |
| Insulin receptor (INSR, Homo sapiens, UniProt P06213) | 100 |
| SRC (Homo sapiens, UniProt P12931) | 86.7 |
| STK25 (Homo sapiens, UniProt O00506) | 68.1 |
| PASK (Homo sapiens, UniProt Q96RG2) | 95.7 |
| AKT1 (Homo sapiens, UniProt P31749) | 94.7 |

Series 2
Target: Calcium/calmodulin-dependent protein kinase type II subunit alpha (CAMK2A, Homo sapiens, UniProt Q9UQM7)
UniProt Q9UQM7, sequence (whole entry, looked up): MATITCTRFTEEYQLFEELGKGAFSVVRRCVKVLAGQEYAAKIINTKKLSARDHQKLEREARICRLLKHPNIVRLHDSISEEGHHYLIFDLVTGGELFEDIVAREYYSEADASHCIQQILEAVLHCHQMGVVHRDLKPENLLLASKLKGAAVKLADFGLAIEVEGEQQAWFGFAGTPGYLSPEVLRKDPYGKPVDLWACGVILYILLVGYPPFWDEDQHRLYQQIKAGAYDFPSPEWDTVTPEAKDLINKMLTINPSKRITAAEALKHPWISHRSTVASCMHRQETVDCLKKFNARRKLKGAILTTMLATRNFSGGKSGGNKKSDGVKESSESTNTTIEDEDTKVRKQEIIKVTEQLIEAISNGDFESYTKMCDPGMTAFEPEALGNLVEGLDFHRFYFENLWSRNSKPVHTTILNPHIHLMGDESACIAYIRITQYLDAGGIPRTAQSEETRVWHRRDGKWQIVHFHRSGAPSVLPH
Read-out: enzyme activity
Mode: inhibitor
Concentration: 10 µM
| Structure (SMILES) | inhibition [%] |
| --- | --- |
| O=C(NC1CCNCC1)[C@@H]1CC[C@@H]2CN1C(=O)N2OS(=O)(=O)O | -6 |
| CC[C@H](C)C(=O)O[C@H]1C[C@H](O)C=C2C=C[C@H](C)[C@H](CC[C@@H](O)C[C@@H](O)CC(=O)O)[C@H]21 | 15 |
| O=C(O)Cc1cc(O)ccc1O[C@@H]1O[C@H](CO)[C@@H](O)[C@H](O)[C@H]1O | 7 |
| Clc1ccc(CCC(Cn2ccnc2)Sc2c(Cl)cccc2Cl)cc1 (stereo not shown) | -7 |
| CO[C@H]1C[C@@H]2CC[C@@H](C)[C@@](O)(O2)C(=O)C(=O)N2CCCC[C@H]2C(=O)O[C@H]([C@H](C)C[C@@H]2CC[C@@H](O)[C@H](OC)C2)CC(=O)[C@H](C)/C=C(\C)[C@@H](O)[C@@H](OC)C(=O)[C@H](C)C[C@H](C)/C=C/C=C/C=C/1C | 6 |
| CC(C)(O)[C@@H](O)COc1c2ccoc2cc2oc(=O)ccc12 | -26 |
| OC[C@H]1O[C@@](CO)(O[C@H]2O[C@H](CO[C@@H]3O[C@H](CO)[C@@H](O)[C@H](O)[C@H]3O)[C@@H](O)[C@H](O)[C@H]2O)[C@@H](O)[C@@H]1O | -4 |
| C/C=C(/C)C(=O)O[C@H]1c2c(ccc3ccc(=O)oc23)OC(C)(C)[C@H]1OC(=O)/C(C)=C\C | 2 |
| CCCc1c2oc(C(=O)O)cc(=O)c2cc2c(=O)cc(C(=O)O)n(CC)c12 | 1 |
| C[C@H]1O[C@]2(CS1)CN1CCC2CC1 | 17 |

Series 3
Species: mouse
Matrix: microsomes or S9
Concentration: 2 µM
Time: 0.5 h
| SMILES | remaining compound [%] |
| --- | --- |
| Cc1ccn(CCNc2ncnc3c2CCN(c2cnccn2)CC3)n1 | 0.508 |
| COC(=O)N(C)CCCC1(C)C(=O)N(C)c2ccc(O)cc21 (stereo not shown) | 24.5 |
| CCOC(=O)c1cccc(NC(=O)CC2C(=O)N(c3ccc(Cl)cc3)C(=O)N2C2CCCC2)c1 (stereo not shown) | 4.59 |
| CC(c1ccncn1)N(C)C(=O)c1ccc(OC2CCN(CCc3ccccc3)CC2)cc1 (stereo not shown) | 35.4 |
| NC(=O)N1CCc2cc(NS(=O)(=O)c3cc(F)ccc3F)ccc21 | 20.5 |
| CCC1(CC)NC(=O)N(Cc2cc3ccc(C)c(C)c3nc2Cl)C1=O | 0.258 |
| COc1c(C)cnc(Cn2cnc3oc(C)c(C)c3c2=O)c1C | 0.111 |
| CC(C)COc1cc(=O)n2c(c1C(=O)NCCCN1CCCCC1)CCCCC2 | 15.2 |
| COc1ccc(Br)cc1CNC(=O)C(C)n1nc(C)n2c(cc3occc32)c1=O (stereo not shown) | 0.897 |
| COc1cc2c(c(OC)c1OC)-c1c(cc(OC)c(OC)c1OC)C[C@](C)(O)[C@@H](C)C2 | 20.2 |
| Cc1cccc(NC(=O)NC(C)c2n[nH]c(=O)n2C)n1 (stereo not shown) | > 100 |

Series 4
SMILES: C=CC(=O)N1CCC[C@@H](n2nc(-c3ccc(Oc4ccccc4)cc3)c3c(N)ncnc32)C1
Mode: inhibitor
Concentration: 1 µM
| target | read-out | inhibition [%] |
| --- | --- | --- |
| DAPK2 (Homo sapiens, UniProt Q9UIK4) | enzyme activity | 2 |
| NEK4 (Homo sapiens, UniProt P51957) | enzyme activity | 3 |
| TLK1 (Homo sapiens, UniProt Q9UKI8) | enzyme activity | 21 |
| Ribosomal protein S6 kinase alpha-6, N-terminal kinase domain (RPS6KA6, Homo sapiens, UniProt Q9UK32) |  | 7 |
| DCLK1 (Homo sapiens, UniProt O15075) | enzyme activity | 5 |
| MAP3K2 (Homo sapiens, UniProt Q9Y2U5) | enzyme activity | 41 |
| STK36 (Homo sapiens, UniProt Q9NRP7) | enzyme activity | 37 |
| KIT (Homo sapiens, UniProt P10721, A829P) |  | 41 |
| FGFR3 (Homo sapiens, UniProt P22607) |  | 59 |

A few entries again (series 1):
| target | remaining activity [%] |
| --- | --- |
| ITK (Homo sapiens, UniProt Q08881) | 98.6 |
| Insulin receptor (INSR, Homo sapiens, UniProt P06213) | 100 |
| AKT1 (Homo sapiens, UniProt P31749) | 94.7 |
| PKN1 (Homo sapiens, UniProt Q16512) | 97 |
